Measurements gathered from unrelated publications.
Protocols differ between the studies behind these lines. Numbers after ± are the reported error. In brackets after ≈: the same amount, converted by molar mass.
Organism: Escherichia coli

CC(C)C[C@H](NC(=O)[C@H](C)NC(=O)[C@H](CCCCN)NC(=O)[C@H](C)NC(=O)[C@H](CC(C)C)NC(=O)[C@H](CCCCN)NC(=O)[C@H](CC(C)C)NC(=O)[C@H](Cc1c[nH]c2ccccc12)NC(=O)[C@H](CC(C)C)NC(=O)[C@H](CC(C)C)NC(=O)[C@H](C)NC(=O)[C@@H]1CCCN1C(=O)[C@H](CC(C)C)NC(=O)[C@H](CCCCN)NC(=O)[C@H](CC(C)C)NC(=O)[C@H](C)NC(=O)[C@H](CCCCN)NC(=O)[C@H](C)NC(=O)[C@H](CC(C)C)NC(=O)[C@H](CCCCN)NC(=O)[C@@H](N)CCCCN)C(=O)N[C@@H](CCCCN)C(=O)N[C@@H](CCCCN)C(=O)N[C@@H](C)C(N)=O — MIC50 (broth microdilution; TOP10; overnight, 37 °C): 0.82 ± 0.03 µM (≈ 2.18 µg/mL)
CC[C@H](C)[C@H](N)C(=O)N[C@@H](CC(C)C)C(=O)N1CCC[C@H]1C(=O)N[C@@H](Cc1c[nH]c2ccccc12)C(=O)N[C@@H](CCCCN)C(=O)N[C@@H](Cc1c[nH]c2ccccc12)C(=O)N1CCC[C@H]1C(=O)N[C@@H](Cc1c[nH]c2ccccc12)C(=O)N[C@@H](Cc1c[nH]c2ccccc12)C(=O)N1CCC[C@H]1C(=O)N[C@@H](Cc1c[nH]c2ccccc12)C(=O)N[C@@H](CCCNC(=N)N)C(=O)N[C@@H](CCCNC(=N)N)C(N)=O — MIC range (broth microdilution; 18 h, 30 clinical isolates): 0.5 to 8 µg/mL (≈ 0.262 to 4.2 µM)
CC(C)C[C@H](NC(=O)[C@H](C)NC(=O)[C@H](CCCCN)NC(=O)[C@H](C)NC(=O)[C@H](CC(C)C)NC(=O)[C@H](CCCCN)NC(=O)[C@H](CC(C)C)NC(=O)[C@H](Cc1c[nH]c2ccccc12)NC(=O)[C@H](CC(C)C)NC(=O)[C@H](CC(C)C)NC(=O)[C@H](C)NC(=O)[C@H](CC(C)C)NC(=O)[C@H](CC(C)C)NC(=O)[C@H](CCCCN)NC(=O)[C@H](CC(C)C)NC(=O)[C@H](C)NC(=O)[C@H](CCCCN)NC(=O)[C@H](C)NC(=O)[C@H](CC(C)C)NC(=O)[C@H](CCCCN)NC(=O)[C@@H](N)CCCCN)C(=O)N[C@@H](CCCCN)C(=O)N[C@@H](CCCCN)C(=O)N[C@@H](C)C(N)=O — MIC50 (broth microdilution; NCTC 9001; overnight, 37 °C): 13.05 ± 0.13 µM (≈ 34.9 µg/mL)
CC(C)C[C@H](NC(=O)[C@H](CCCNC(=N)N)NC(=O)[C@@H]1CCCN1C(=O)[C@H](CCCNC(=N)N)NC(=O)[C@@H]1CCCN1C(=O)[C@@H]1CCCN1C(=O)[C@H](CCCNC(=N)N)NC(=O)[C@@H]1CCCN1C(=O)[C@H](CCC(N)=O)NC(=O)[C@@H]1CCCN1C(=O)[C@H](CCCCN)NC(=O)[C@H](Cc1ccc(O)cc1)NC(=O)[C@@H](NC(=O)[C@@H]1CCCN1C(=O)[C@H](CCCCN)NC(=O)[C@H](CC(N)=O)NC(=O)[C@H](CC(N)=O)NC(=O)CN)C(C)C)C(=O)O — MIC (JW0368 ΔsbmA; 18 h, 37 °C, 12.5% Mueller-Hinton broth): 0.192 ± 0.044 µM (≈ 0.406 µg/mL)
C=CCCC[n+]1cc(-c2ccc3ccccc3n2)cc2ccccc21 — IC50 (lacZ reporter expression; VirF-independent lacZ control; 3 h, 37 °C, 6.2% DMSO, with: 1 mM IPTG): > 100 µM
CC(C)(O/N=C(\C(=O)N[C@@H]1C(=O)N2C(C(=O)[O-])=C(C[n+]3ccccc3)CS[C@H]12)c1csc(N)n1)C(=O)O — time to complete kill (drug-resistant; 64 µg/mL, with: TS-CATH 16 µg/mL): 12 h
NC[C@@H]1O[C@H](O[C@H]2[C@@H](O)[C@H](O[C@@H]3[C@@H](O)[C@H](N)C[C@H](N)[C@H]3O[C@H]3O[C@H](CN)[C@@H](O)[C@H](O)[C@H]3N)O[C@@H]2CNC(=O)Cc2ccc3ccc4cccc5ccc2c3c45)[C@H](N)[C@@H](O)[C@@H]1O — IC50 (protein translation; S30 cell-free extract): ~1.2 µM
O=[N+]([O-])CC1C(c2ccc3ccccc3n2)=CN(Cc2ccc(Cl)cc2)c2ccccc21 (stereo not drawn) — IC50 (lacZ reporter expression; VirF-independent lacZ control; 3 h, 37 °C, 6.2% DMSO, with: 1 mM IPTG): > 100 µM
CC(C)C[C@H](NC(=O)[C@H](C)NC(=O)[C@H](CC(C)C)NC(=O)[C@H](CCCCN)NC(=O)[C@H](CC(C)C)NC(=O)[C@H](CCCCN)NC(=O)[C@@H](N)CCCCN)C(=O)N[C@@H](C)C(=O)N[C@@H](CCCCN)C(=O)N[C@@H](CC(C)C)C(=O)N[C@@H](C)C(=O)N[C@@H](CC(C)C)C(=O)N[C@@H](CC(C)C)C(=O)N[C@@H](Cc1c[nH]c2ccccc12)C(=O)N[C@@H](CCCCN)C(=O)N[C@@H](C)C(=O)N[C@@H](CC(C)C)C(=O)N[C@@H](C)C(=O)N[C@@H](CC(C)C)C(=O)N[C@@H](CCCCN)C(=O)N[C@@H](CC(C)C)C(=O)N[C@@H](CCCCN)C(=O)N[C@@H](CCCCN)C(=O)N[C@@H](C)C(N)=O — MIC50 (broth microdilution; NCTC 9001; overnight, 37 °C): 1.11 ± 0.48 µM (≈ 2.97 µg/mL)
CC[C@H](C)[C@H](NC(=O)[C@H](CCCCN)NC(=O)[C@H](CCC(=O)O)NC(=O)[C@H](CCCCN)NC(=O)[C@H](CO)NC(=O)[C@H](CCCCN)NC(=O)[C@H](CCCNC(=N)N)NC(=O)[C@H](Cc1ccccc1)NC(=O)[C@H](Cc1ccccc1)NC(=O)[C@H](CC(=O)O)NC(=O)CNC(=O)[C@H](CC(C)C)NC(=O)[C@@H](N)CC(C)C)C(=O)NCC(=O)N[C@@H](CCCCN)C(=O)N[C@@H](CCC(=O)O)C(=O)N[C@@H](Cc1ccccc1)C(=O)N[C@@H](CCCCN)C(=O)N[C@@H](CCCNC(=N)N)C(=O)N[C@H](C(=O)N[C@H](C(=O)N[C@@H](CCC(N)=O)C(=O)N[C@@H](CCCNC(=N)N)C(=O)N[C@H](C(=O)N[C@@H](CCCCN)C(=O)N[C@@H](CC(=O)O)C(=O)N[C@@H](Cc1ccccc1)C(=O)N[C@@H](CC(C)C)C(=O)N[C@@H](CCCNC(=N)N)C(=O)N[C@@H](CC(N)=O)C(=O)N[C@@H](CC(C)C)C(=O)N[C@H](C(=O)N1CCC[C@H]1C(=O)N[C@@H](CCCNC(=N)N)C(=O)N[C@H](C(=O)N[C@@H](CCC(=O)O)C(=O)N[C@@H](CO)C(=O)O)[C@@H](C)O)C(C)C)[C@@H](C)CC)C(C)C)[C@@H](C)CC — MBC (K-12 sample A (CGSC sample B)): 2.5 µM (≈ 11.2 µg/mL)
CC(C)C[C@H](NC(=O)[C@H](C)NC(=O)[C@H](CCCCN)NC(=O)[C@H](C)NC(=O)[C@H](CC(C)C)NC(=O)[C@H](CCCCN)NC(=O)[C@H](CC(C)C)NC(=O)[C@H](Cc1c[nH]c2ccccc12)NC(=O)[C@H](CC(C)C)NC(=O)[C@@H]1CCCN1C(=O)[C@H](C)NC(=O)[C@H](CC(C)C)NC(=O)[C@H](CC(C)C)NC(=O)[C@H](CCCCN)NC(=O)[C@H](CC(C)C)NC(=O)[C@H](C)NC(=O)[C@H](CCCCN)NC(=O)[C@H](C)NC(=O)[C@H](CC(C)C)NC(=O)[C@H](CCCCN)NC(=O)[C@@H](N)CCCCN)C(=O)N[C@@H](CCCCN)C(=O)N[C@@H](CCCCN)C(=O)N[C@@H](C)C(N)=O — MIC50 (broth microdilution; NCTC 9001; overnight, 37 °C): 1.8 ± 0.27 µM (≈ 4.78 µg/mL)
CC[C@H](C)[C@H](NC(=O)CN)C(=O)NCC(=O)N[C@@H](CCCCN)C(=O)N[C@@H](Cc1ccccc1)C(=O)N[C@@H](CC(C)C)C(=O)N[C@@H](Cc1c[nH]cn1)C(=O)N[C@@H](CO)C(=O)N[C@@H](C)C(=O)N[C@@H](CCCCN)C(=O)N[C@@H](CCCCN)C(=O)N[C@@H](Cc1ccccc1)C(=O)NCC(=O)N[C@@H](CCCCN)C(=O)N[C@@H](C)C(=O)N[C@@H](Cc1ccccc1)C(=O)N[C@H](C(=O)NCC(=O)N[C@@H](CCC(=O)O)C(=O)N[C@H](C(=O)N[C@@H](CCSC)C(=O)N[C@@H](CC(N)=O)C(=O)N[C@@H](CO)C(=O)O)[C@@H](C)CC)C(C)C — MBC (DH5α; 24 h, 37 °C): 30 µM (≈ 74 µg/mL)

Excerpt of the above:
CC(C)(O/N=C(\C(=O)N[C@@H]1C(=O)N2C(C(=O)[O-])=C(C[n+]3ccccc3)CS[C@H]12)c1csc(N)n1)C(=O)O — time to complete kill (drug-resistant; 64 µg/mL, with: TS-CATH 16 µg/mL): 12 h
